Assay results from different studies.
± gives the spread as reported. The star is where a group is joined.
lasR: Transcriptional activator protein LasR (lasR, Pseudomonas aeruginosa, UniProt P25084)
Kelch domain-containing protein 2: Kelch domain-containing protein 2 (UniProt Q9Y2U9)
ESR2: Estrogen receptor beta (ESR2, Homo sapiens, UniProt Q92731)
CNR2: Cannabinoid receptor 2 (CNR2, Homo sapiens, UniProt P34972)

| Substance | target | test | test system | conditions | how to read | quantity | result |
| --- | --- | --- | --- | --- | --- | --- | --- |
| Nc1nnc(S)s1 | Peptide deformylase (def, Escherichia coli, UniProt P0A6K3) |  |  | 500 µM, immediately, stock in dimethylformamide | baseline: control | remaining activity | 101% |
| Oc1ccc(-c2c(Cl)c(Cl)cc(Cl)c2Cl)c(Cl)c1 | Aequorin-1 (Aequorea victoria, UniProt P07164, C152S/C159S/C187S) | aequorin bioluminescence, inhibitor |  | 2 h, with: coelenterazine |  | detection limit | 1.23 µM |
| O=C(Cc1ccccc1)NC1CCOC1=O (centres unmarked) | lasR | reporter gene, agonist | Escherichia coli JLD271/pJN105L/pSC11 | 100 µM | baseline: OdDHL 100 µM | activation | -3% |
| TAFEGKLEEIIRSSEGG | Kelch domain-containing protein 2 | native mass spectrometry | peptide, 200 mM ammonium acetate | 20 µM Kelch domain-containing protein 2, pH 7 | baseline: total Kelch domain-containing protein 2 signal | fraction of protein bound | 1% |
| CC1(C)Oc2cc([C@]34CC5CC(C[C@@](CN=[N+]=[N-])(C5)C3)C4)cc(O)c2[C@@H]2C[C@H](O)CC[C@H]21 | Cannabinoid receptor 1 (Cnr1, Rattus norvegicus, UniProt P20272) | radioligand binding Bmax reduction | rat brain membranes | 10-fold Ki, with: [3H]CP-55,940 | baseline: untreated | covalent labeling | 67% |
| COc1ccccc1Oc1ccc(C(=O)N[C@H](CN2CCN(c3cccc(O)c3)[C@@H](C)C2)C(C)C)cc1 | Kappa-type opioid receptor (OPRK1, Homo sapiens, UniProt P41145) | antagonist | CHO | with: U69593 |  | Ke | 5.6 ± 1.41 nM |
| COc1ccccc1N1CCN(CCN(C(=O)c2ccc(F)cc2)c2ccccn2)CC1 | GPR32 (Homo sapiens, UniProt O75388) | β-arrestin recruitment, agonist, PathHunter | CHO cells expressing GPR32 | concentration not given | baseline: vehicle | efficacy | 20.5% |
| O=c1[nH]c(/C=C/c2cc(O)ccc2O)c([N+](=O)[O-])c(=O)[nH]1 | Riboflavin synthase (ribC, Escherichia coli, UniProt P0AFU8) | enzyme activity, substrate | Escherichia coli, recombinant riboflavin synthase | pH 7.0 |  | Ks | 3.4 ± 0.3 µM |
| Oc1ccc(-c2c[se]cc2-c2ccc(O)cc2F)c(F)c1 | ESR2 | antagonist | HEK293T | highest tested concentration, 24 h, with: estradiol 10 nM | baseline: estradiol alone | efficacy | 58 ± 6% |
| O=C1C(O)=C([C@H]2CC[C@H](c3ccc(Cl)cc3)CC2)C(=O)c2ccccc21 | COB/RIP1, center P (Saccharomyces cerevisiae, UniProt P00163+P08067) | center P first turnover |  | concentration not given, preincubated with oxidized enzyme, with: quinol |  | cytochrome b reduction | no inhibition |
| FEDSDYADIFIEE | Tyrosine-protein kinase CSK (CSK, Homo sapiens, UniProt P41240) | substrate, coupled enzyme | peptide | pH 7.4, room temperature, with: 1 mM ATP, 5 mM MnCl2 |  | kcat/Km | 280 M⁻¹ s⁻¹ |
| CC1N=C(c2ccccc2F)c2cc(N3CCOCC3)ccc2NC1=O (centres unmarked) | Alpha-2A adrenergic receptor (ADRA2A, Homo sapiens, UniProt P08913) | ligand displacement, radioligand |  | 10 µM |  | inhibition | -4% |
| O=C(C(=O)c1ccccc1)c1ccccc1 | Liver carboxylesterase 1 (CES1, Homo sapiens, UniProt P23141) | irreversible inhibitor |  | 5× IC50 or 200 µM, 1 h, preincubation then inhibitor removal, with: o-nitrophenyl acetate substrate |  | remaining activity | 0% |
| CCCCCCCCCCCCCC(=O)O[C@@H]1[C@@H](C)[C@@]2(O)[C@@H](C=C(CO)C[C@]3(O)C(=O)C(C)=C[C@@H]23)[C@@H]2C(C)(C)[C@]12OC(C)=O | Adenosine receptor A2b (Adora2b, Rattus norvegicus, UniProt P29276) | agonist-induced cAMP accumulation | H9c2 | 40 min pretreatment |  | concentration for maximal enhancement | ~10 nM |
| O=C(Cc1ccc(-c2ccccc2)cc1)NC1CCSC1=O (centres unmarked) | lasR | reporter gene, agonist | PAO1 MW1 pUM15 | 10 µM, with: OdDHL |  | activation | > 20% |
| LPNWFNLSSNLM | HIV-1 neutralising antibody 4E10 | phage binding, M13 phage ELISA | peptide | concentration not given | lower = stronger binding | binding titer | 5.1e+07 M13/mL |
| Cc1cc(O)cc(C)c1-c1ccc(-c2c(C)cc(O)cc2C)[se]1 | Estrogen receptor (ESR1, Homo sapiens, UniProt P03372) | antagonist | HEK293T | highest tested concentration, with: estradiol 10 nM | baseline: estradiol alone | efficacy | -22 ± 8% |
| O=C1c2ccc(O)cc2OCC1c1ccc(O)cc1 (centres unmarked) | UDP-glucuronosyltransferase 1A9 (UGT1A9, Homo sapiens, UniProt O60656) | substrate |  | pH 7.4, 37 °C |  | Vmax | 628 pmol/mg/min |

| Substance | target | test | test system | conditions | how to read | quantity | result |
| --- | --- | --- | --- | --- | --- | --- | --- |
| Ac-LDEVD-pNA (N-acetyl, C-pNA; pNA = O=[N+]([O-])c1ccc(N*)cc1) | Caspase-6 (CASP6, Homo sapiens, UniProt P55212) | substrate, colorimetric p-nitroanilide release |  | pH 7.25 |  | kcat | 0.5 ± 0.05 s⁻¹ |
| RYRDPTGMYY | Serine/threonine-protein kinase pim-1 (PIM1, Homo sapiens, UniProt P11309) | substrate, coupled enzyme | peptide | pH 7.4, room temperature, with: 1 mM ATP, 20 mM MgCl2 |  | kcat/Km | 1400 M⁻¹ s⁻¹ |
| GGNWST | UDP-glucose:protein N-beta-glucosyltransferase (Actinobacillus pleuropneumoniae serotype 5b, UniProt A3N2T3, D215R/Q469A) | substrate | peptide | 15 min, pH 8.0, 37 °C, D215R mutant, with: UDP-Glc 100 mM |  | apparent kcat | 0.07 ± 0.01 s⁻¹ |
| VIKVIGVGGGG | Kelch domain-containing protein 2 | native mass spectrometry | peptide, 200 mM ammonium acetate | 20 µM Kelch domain-containing protein 2, pH 7 | baseline: total Kelch domain-containing protein 2 signal | fraction of protein bound | 0.8% |
| CN(C)c1cccc2c(S(=O)(=O)N[C@@H](CCC(=O)O)C(=O)N[C@@H](CC(N)=O)C(=O)N[C@@H](CCC(N)=O)C(=O)N[C@@H](CCCCN)C(=O)N[C@@H](CCC(=O)O)C(=O)N[C@@H](Cc3ccc(O)cc3)C(=O)N[C@@H](Cc3ccccc3)C(=O)N[C@@H](Cc3ccccc3)C(=O)O)cccc12 | Rho guanine nucleotide exchange factor TIAM1, PDZ domain (TIAM1, Homo sapiens, UniProt Q13009) | fluorescence anisotropy |  | concentration not given, dansylated peptide | baseline: model peptide Kd over peptide Kd | binding affinity fold change | 6.7 |
| CSCC[C@H](NC=O)C(=O)N[C@@H](CC(C)C)C(=O)N[C@@H](Cc1ccccc1)C(=O)O | Solute carrier family 15 member 1 (Slc15a1, Mus musculus, UniProt Q9JIP7) | intestinal transport | wild-type mice, jejunum, in situ perfusion | 0.1 µM to 7.5 mM, pH 6.5, with: 100 mM Phe |  | K0.5 | 1.6 ± 0.4 mM |
| COc1ccc(Oc2ccc(C(=O)N[C@H](CN3CCN(c4cccc(O)c4)[C@@H](C)C3)C(C)C)cc2)cc1 | Mu-type opioid receptor (OPRM1, Homo sapiens, UniProt P35372) | antagonist | CHO | with: DAMGO |  | Ke | 17 ± 5 nM |
| Nc1ncnc2c1ncn2[C@@H]1O[C@H](COP(=O)(O)OP(=O)(O)O)[C@@H](O)[C@H]1O | matB (Rhodopseudomonas palustris, UniProt Q6ND88, C106A/K488A/Q457C/R286C) | nucleotide binding |  | 0.5 µM protein, pH 7.0, 20 °C, 10 mM MgCl2 | baseline: saturating ligand over no ligand | fluorescence ratio | 2.6 ± 0.1 |
| CCCCCn1nc(C(=O)NC(C)(C)c2cccc(C(N)=O)c2)c2ccccc21 | CNR2 | calcium mobilization, agonist | CHO-K1 expressing Gαq16 |  | baseline: CP55,940 maximum | Emax | 43 ± 5% |
| CC(C)[C@H](NC(=O)C[C@H](NC(=O)CCCCCCCCCCn1cc(CCCCOCCOCCOCCOCCOCCOCCOc2ccc(Br)c(-c3cc4cnc(N)nc4nc3N)c2Br)nn1)c1ccccc1)C(=O)[C@@H]1C(=O)NC(=O)[C@H]1C | accD/accA/accC (Escherichia coli, UniProt P0A9Q5+P0ABD5+P24182) | competition LC-MS/MS |  | with: competitors 50 µM |  | residence time | 3.3 min |
| O=P(O)(O)OC[C@@H](O)[C@@H](O)CO | Orotidine 5'-phosphate decarboxylase (Saccharomyces cerevisiae S288c, UniProt P03962, T100A) | dianion-activated decarboxylation |  |  | baseline: wild type | activation energy change | 2.8 kcal/mol |
| SDDFFVGRVGG | Kelch domain-containing protein 2 | native mass spectrometry | peptide, 200 mM ammonium acetate | 20 µM Kelch domain-containing protein 2, pH 7 | baseline: total Kelch domain-containing protein 2 signal | fraction of protein bound | 0.8% |
| N=C(N)NCCC[C@H](N)C(=O)O | CRT (Plasmodium falciparum, UniProt W7FI62) | scintillation proximity | nanodiscs | 1 mM, with: [3H]-chloroquine and [3H]-piperaquine |  | inhibition of binding | inhibited |
| Oc1ccc(-c2ccc(-c3ccc(O)cc3Cl)[se]2)c(Cl)c1 | ESR2 | antagonist | HEK293T | highest tested concentration, 24 h, with: estradiol 10 nM | baseline: estradiol alone | efficacy | 74 ± 5% |
| NC(=O)c1cccc(CNC(=O)c2nn(Cc3ccc(F)cc3)c3ccccc23)c1 | CNR2 | calcium mobilization, agonist | CHO-K1 expressing Gαq16 |  | baseline: CP55,940 maximum | Emax | 32 ± 2% |
| Cc1cc(-c2ccc(-c3cc(C)c(O)c(C)c3)[se]2)cc(C)c1O | ESR2 | antagonist | HEK293T | highest tested concentration, 24 h, with: estradiol 10 nM | baseline: estradiol alone | efficacy | 86 ± 13% |
| c1ccc([C@@H]2CO2)cc1 | Epoxide hydrolase 1 (Solanum tuberosum, UniProt Q41415) | substrate, tryptophan fluorescence |  | (R)-enantiomer |  | apparent Kd | 5.8 ± 2 mM |
